Values quoted from earlier work that unrelated publications cite.
Lines come from different studies, so protocols differ. ± marks the error that the study gave.
UniProt Q8TCC7, sequence (whole entry, looked up): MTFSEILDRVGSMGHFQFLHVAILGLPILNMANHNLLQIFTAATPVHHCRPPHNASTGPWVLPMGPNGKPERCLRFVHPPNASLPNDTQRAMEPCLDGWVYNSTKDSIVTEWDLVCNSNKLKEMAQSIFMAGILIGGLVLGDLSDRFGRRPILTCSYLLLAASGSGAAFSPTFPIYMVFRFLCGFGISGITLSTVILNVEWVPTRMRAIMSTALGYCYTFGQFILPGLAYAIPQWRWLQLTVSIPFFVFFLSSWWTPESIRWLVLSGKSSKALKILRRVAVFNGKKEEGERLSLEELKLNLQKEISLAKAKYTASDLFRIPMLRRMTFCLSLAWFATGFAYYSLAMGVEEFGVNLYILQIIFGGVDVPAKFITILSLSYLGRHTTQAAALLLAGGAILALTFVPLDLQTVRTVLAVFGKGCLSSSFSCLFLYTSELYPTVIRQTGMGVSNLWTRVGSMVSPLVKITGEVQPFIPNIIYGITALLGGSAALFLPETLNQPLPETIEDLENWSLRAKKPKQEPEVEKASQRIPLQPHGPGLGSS

`COc1cnc(-n2cnc(C)n2)c2[nH]cc(C(=O)C(=O)N3CCN(C(=O)c4ccccc4)CC3)c12` has an exposure increase of 40% (CYP3A4 human; human; dose not given, together with: ritonavir; baseline: without ritonavir).
Under “midazolam Cmax increase”, `Cc1ccc(NC(=O)[C@H]2CCCN(C(=O)c3c(C)cccc3F)[C@H]2c2ccc(NC3CCCC3)cc2)cc1C(F)(F)F` is recorded as 1.6 fold (CYP3A4; inhibitor; human, fasted; oral, 30 mg twice daily, 11 days, together with: midazolam; baseline: midazolam alone).
`Cc1c(O)cccc1C(=O)N[C@@H](CSc1ccccc1)[C@H](O)CN1C[C@H]2CCCC[C@H]2C[C@H]1C(=O)NC(C)(C)C` gave an inhibition of 50% (hepatic CYP3A human; concentration not given).
Under IC50, `FC(F)(F)C(F)(F)C(F)(F)C(F)(F)CCI` is recorded as “inactive” (CYP1A2; inhibitor; Tox21 screening).
With `CN(Cc1cnc2nc(N)nc(N)c2n1)c1ccc(C(=O)N[C@@H](CCC(=O)O)C(=O)O)cc1` the clearance was 6.5 L/h (SLC22A8 (Homo sapiens, UniProt Q8TCC7); human; 200 mg/m2, without probenecid).
`O=S(=O)(O)C(F)(F)C(F)(F)C(F)(F)C(F)(F)C(F)(F)C(F)(F)C(F)(F)C(F)(F)F` gave an IC50 of 43.7 ± 11.4 µM (CYP1A2; inhibitor; Tox21 screening).
`O=C(O)C(F)(F)C(F)(F)C(F)(F)C(F)(F)C(F)(F)C(F)(F)C(F)(F)F` gave a Km of 8.3 µM (OATP2B1 (human); apical uptake, substrate; Caco-2).
`O=C(O)C(F)(F)C(F)(F)C(F)(F)C(F)(F)C(F)(F)C(F)(F)C(F)(F)C(F)(F)C(F)(F)F` — result for IC50: “inactive” (CYP3A4; inhibitor; Tox21 screening).
The IC50 of `C=C[C@@H]1C[C@]1(NC(=O)[C@@H]1C[C@@H]2CN1C(=O)[C@H](C(C)(C)C)NC(=O)O[C@@H]1C[C@H]1CCCCCc1nc3ccc(OC)cc3nc1O2)C(=O)NS(=O)(=O)C1CC1` is reported as greater than 100 µM (CYP2C9; human liver microsomes).
